Published values from different studies.
UCHL1: Ubiquitin carboxyl-terminal hydrolase isozyme L1 (UCHL1, Homo sapiens, UniProt P09936)
UniProt P09936, sequence (whole entry, looked up): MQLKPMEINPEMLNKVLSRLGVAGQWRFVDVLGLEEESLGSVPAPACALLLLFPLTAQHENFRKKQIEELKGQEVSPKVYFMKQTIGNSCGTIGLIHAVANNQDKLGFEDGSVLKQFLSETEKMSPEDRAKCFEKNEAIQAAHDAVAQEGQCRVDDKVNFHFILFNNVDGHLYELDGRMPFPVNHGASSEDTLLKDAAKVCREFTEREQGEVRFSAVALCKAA

SMILES | tested on | test | system | setting | scale | quantity | result
Cn1nc2c(=O)n(C3CC3)cnc2c1[C@](O)(c1cnc(C(F)(F)F)c(Cl)c1)C(F)(F)F |  |  | infected humanized SCID mice, blood | 1 mg/kg daily, 6 days |  | AUC(0-last) | 51.4 µM·h
O=C(c1nc2n(n1)[C@H](c1ccccc1)C[C@@H]2F)C1CC1 |  | geometric LS mean | human, high-fat meal, plasma | oral, 75 mg single dose |  | AUC(0-last) | 13000 ng·h/mL
C[C@@H](Oc1ccc(S(C)(=O)=O)cc1C(=O)N1C[C@@H]2C[C@]2(c2cc(C(F)(F)F)on2)C1)C(F)(F)F |  |  | healthy human volunteers, fasted, plasma | oral, 10 mg single, adjusted geometric mean |  | AUC(0-last) | 4.03 µM·h
Cc1nn(C(C)C)c(C)c1CN1CCCC(CCC(=O)NCc2ccccc2F)C1 (stereo not drawn) | Trypanosoma cruzi | reporter translation, Renilla luciferase mRNA translation | cell-free extract | 40 µM | relative to: DMSO | inhibition | 6.6%
CC(F)(F)c1cc(F)ccc1-c1sc2cc(O)ccc2c1Oc1ccc(/C=C/C(=O)O)cc1 |  |  | human patients, serum | oral, 200 mg twice daily, cycle 1 day 28, without regard to food, mean |  | AUC(0-last) | 4890 ng·h/mL
Cc1noc(C)c1-c1cc(C(O)(c2ccccn2)c2ccccn2)c2nc(C3CC3)[nH]c2c1 |  |  | human male fasted, plasma | oral, 3 mg once daily, cycle 1 day 8 |  | AUC(0-last) | 3740 ng·h/mL
CC(C)NC(=O)COc1cccc(-c2nc(Nc3ccc4[nH]ncc4c3)c3ccccc3n2)c1 |  |  | human male, plasma | oral, 200 mg, day 6, fed, alone, geometric mean |  | AUC(0-last) | 9710 ng·h/mL
N#CCNC(=O)c1ccc(-c2ccnc(Nc3ccc(N4CCOCC4=O)cc3)n2)cc1 |  |  | healthy human volunteers, plasma | 200 mg momelotinib, day 1, fasted, momelotinib alone |  | AUC(0-last) | 3910 ng·h/mL
Cc1cc(C)c(CNC(=O)c2cc(Cl)c3c(c2C)O[C@@](C)([C@H]2CC[C@H](N(C)C)CC2)O3)c(=O)[nH]1 |  |  | human, NHL patients, plasma | oral, 200 mg/day, cycle 1 day 1, once daily |  | AUC(0-last) | 12400 ng·h/mL
CC(C)n1nc(-c2ccc3oc(N)nc3c2)c2c(N)ncnc21 |  |  | human, plasma | oral, 20 mg once weekly, cycle 1 day 15 |  | AUC(0-last) | 1660 ng·h/mL
Cc1cc(Nc2cc3ncccc3c(N[C@@H]3C[C@H]4CC[C@@H](C3)N4CCC#N)n2)n[nH]1 |  |  | human, plasma | 300 mg single dose, mean |  | AUC(0-last) | 25.6 ng·h/mL
N#CC(=Cc1cc(F)ccc1F)C(=O)NC1CCCCC1 | UCHL1 | covalent, intact protein LC-MS |  | 12.5 µM |  | labelling | 27.2%
C=CC(=O)N(C)CCOc1c(N)ncnc1-c1cc(F)cc(NC(=O)c2ccc(C3CC3)cc2F)c1C |  |  | human, fasted, whole blood | oral, 60 mg single dose, food effect crossover, adjusted geometric mean |  | AUC(0-last) | 173 ng·h/mL
N#CCNC(=O)c1ccc(-c2ccnc(Nc3ccc(N4CCOCC4)cc3)n2)cc1 |  |  | healthy human volunteers, plasma | oral, dose not given, day 12, without rifampin |  | AUC(0-last) | 2580 ng·h/mL
CN1CC[C@@H](c2c(O)cc(O)c3c(=O)cc(-c4ccc(C(F)(F)F)cc4Cl)oc23)[C@@H]1CO |  | noncompartmental | human patients, plasma | oral, 100 mg continuous, cycle 1, after day 1 |  | AUC(0-last) | 2220 ng·h/mL
Cn1c(=O)oc2ccc(-c3ccc(C[C@@H](C#N)NC(=O)[C@@H]4CNCCCO4)cc3)cc21 |  |  | human, severe renal impairment, plasma | oral, 25 mg single dose, mean |  | AUC(0-last) | 2750 ng·h/mL
CO[C@H]1C[C@@H]2CC[C@@H](C)[C@@](O)(O2)C(=O)C(=O)N2CCCC[C@H]2C(=O)O[C@H]([C@H](C)C[C@@H]2CC[C@@H](OC(=O)NCCOCCOCCOCCOCCOCCOCCOCCOCCC(=O)N3CCc4cc(Cn5nc(-c6ccc7oc(N)nc7c6)c6c(N)ncnc65)ccc4C3)[C@H](OC)C2)C[C@@H](O)[C@H](C)/C=C(\C)[C@@H](O)[C@@H](OC)C(=O)[C@H](C)C[C@H](C)/C=C/C=C/C=C/1C |  |  | human patients, plasma | intravenous, 10 mg, cycle 1 day 15, 1 h infusion |  | AUC(0-last) | 0.391 µM·h
CN(C(=O)C(C)(C)c1cc(C(F)(F)F)cc(C(F)(F)F)c1)c1cnc(N2C[C@H]3COCCN3C[C@H]2CO)cc1-c1ccc(F)cc1[14CH3] |  | LC-MS/MS | human, plasma | oral, 120 mg |  | AUC(0-last) | 6540 ng·h/mL
COc1ncc(-c2nc3c(n2C(C)C)[C@H](c2ccc(Cl)cc2)N(c2cc(Cl)cn(C)c2=O)C3=O)c(OC)n1 |  | LC-MS/MS, noncompartmental | human, plasma | oral, 120 mg, cycle 1 day 8, high-dose, geometric mean |  | AUC(0-last) | 5270 ng·h/mL
COC(=O)N[C@@H](C)CNc1nccc(-c2cn(C(C)C)nc2-c2cc(Cl)cc(NS(C)(=O)=O)c2F)n1 |  |  | human, plasma | oral, 50 mg, single dose alone | geometric mean | AUC(0-last) | 2040 ng·h/mL
O=C(/C=C/CN1CCCCC1)Nc1cc2c(Nc3ccc(F)c(Cl)c3)ncnc2cc1O |  |  | human, plasma | oral, 30 mg |  | AUC(0-last) | 317 ng·h/mL
C=CC(=O)N1CCC(Oc2cc3c(Nc4ccc(Cl)c(Cl)c4F)ncnc3cc2OC)CC1 |  |  | human, fasted, plasma | oral, 16 mg, geometric mean |  | AUC(0-last) | 482 ng·h/mL
C[C@@H](N)c1cc(Cl)ccc1Cn1c(=S)[nH]c(=O)c2[nH]ccc21 |  |  | human, both sexes, severe renal impairment, plasma | oral, 2.5 mg single dose, geometric mean |  | AUC(0-last) | 0.558 µM·h
C[C@H]1CN(C(=O)CC#N)[C@]12CCN(c1ncnc3[nH]ccc13)C2 |  |  | healthy adult humans, plasma | oral, 1.5 mg single, geometric mean |  | AUC(0-last) | 19.4 ng·h/mL
CCOc1c([C@H](C)n2nc(C)c3c(N)ncnc32)cc(Cl)c(F)c1[C@@H]1CNC(=O)C1 |  |  | human patients, plasma | oral, 5 mg once daily, cycle 1 day 15 |  | AUC(0-last) | 7.13 µM·h
Nc1c2c(cc3c1CCC3)CCC2 |  |  | human, plasma | oral, 150 mg of GDC-2394, single ascending dose |  | AUC(0-last) | 133 ng·h/mL
CN(C)C(=O)c1cc2cnc(Nc3ccc(N4CCNCC4)cn3)nc2n1C1CCCC1 |  |  | human, severe renal impairment, plasma | oral, 400 mg, geometric mean |  | AUC(0-last) | 10800 ng·h/mL
O=C1CC[C@H](N2Cc3cc(N4CCN(CC5CCN(c6ccc([C@@H]7c8ccc(O)cc8CC[C@@H]7c7ccccc7)cc6)CC5)CC4)ccc3C2=O)C(=O)N1 |  |  | human, plasma | oral, 200 mg, with: rosuvastatin 10 mg |  | AUC(0-last) | 15400 ng·h/mL
Cl.O=C(CCl)NC(c1ccccc1)C1CC1c1ccncc1 (stereo not drawn) | UCHL1 | covalent, intact protein LC-MS |  | 12.5 µM |  | labelling | 16.7%
Cc1cc(C)c(CNC(=O)c2cc(Cl)c3c(c2C)O[C@@](C)([C@H]2CC[C@H](N(C)C)CC2)O3)c(=O)[nH]1 |  | item: total radioactivity | human, plasma | oral, 200 mg |  | AUC(0-last) | 23800 ng eq·h/mL
